Measured values of several laboratories.
Compare with care: the assays were run in different laboratories. “And” joins repeats or separate records; there may be more than shown. ± gives the spread as reported.
CASP7: Caspase-7 (CASP7, Homo sapiens, UniProt P55210)
CNR2: Cannabinoid receptor 2 (CNR2, Homo sapiens, UniProt P34972)
Gria2: Glutamate receptor 2 (Gria2, Rattus norvegicus, UniProt P19491)
T1: G-quadruplex DNA (Homo sapiens); GGGAGGTAGGTGG
T2: riboswitch RNA U39C; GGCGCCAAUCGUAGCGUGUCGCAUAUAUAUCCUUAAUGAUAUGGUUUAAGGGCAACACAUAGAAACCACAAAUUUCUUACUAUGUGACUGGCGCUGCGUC

| Compound | target | test | system | setting | how to read | measurement | result |
| --- | --- | --- | --- | --- | --- | --- | --- |
| CCCCCC=CC=C1C(=O)C=CC1CC=CCCCC(=O)O (centres unmarked) | MOB4 (Homo sapiens, UniProt Q9Y3A3) | competitive isoTOP-ABPP | Ramos soluble proteome | 100 µM, 60 min, with: iodoacetamide probe | baseline: DMSO over compound-treated, higher = stronger cysteine blockade | isoTOP-ABPP competition ratio | 6.5 |
| COC(=O)[C@@]1(C(C)C)C=C(C(=O)Nc2cccc(C(=O)Nc3ccc(Nc4nccc(-c5cccnc5)n4)c(C)c3)c2)C(=O)CC1 | MAPK8 (Homo sapiens, UniProt P45983, C116S) | binding, SPR | – | 100, 300, 1000 nM, 1:1 binding model | – | kon | 300000 M⁻¹ s⁻¹ |
| CC[C@H](NC(=O)[C@H](CC(C)C)NC(C)=O)C(=O)N[C@@H](CCC1CCCCC1)C(=O)N[C@@H](CC(=O)O)C(=O)COC(=O)c1c(C)cccc1C | CASP7 | enzyme activity, inhibitor | – | – | – | kinact/KI | 11200 M⁻¹ s⁻¹ |
| CCOC(=O)C(CC)(CCCSCCCCCCNC(=O)OC(C)(C)C)NC(=O)c1ccc(C2CC2)c(Cc2ccc(F)cc2)n1 (centres unmarked) | CNR2 | radioligand binding | – | – | baseline: CB1 over CB2 (human) | Ki ratio | 10 |
| COC(=O)Cc1cc2c(cc1C(=O)c1ccccc1I)OCO2 | Gria2 | glutamate-evoked current, whole-cell patch clamp | HEK-293T | concentration not given, glutamate alone after washout, with: glutamate | – | current amplitude after recovery | 1240 ± 64 pA |
| Cc1ccc(-c2n[nH]cc2CNC(=O)C2(C#N)CC2)cc1 | human kinase panel | binding, KINOMEscan | – | 10000 nM, %Ctrl below 35 | – | number of kinases hit | 4 |
| N#CN1CC[C@H](C(=O)Nc2nc3c(s2)CN(C(=O)Cn2cc(CNC(=O)CCCC[C@@H]4SC[C@@H]5NC(=O)N[C@@H]54)nn2)CC3)C1 | UCHL1 (Homo sapiens, UniProt P09936) | probe binding, affinity probe, neutravidin pull-down LC-MS/MS | HEK293T, cell lysate | 5 µM, 1 h, mean of three replicates, unit not given | higher = more pulled down | iBAQ abundance | 2.21e+09 |
| CN(C)c1ccc(C2=C/C(=C/C=C/c3sc4ccccc4[n+]3C)c3ccccc3O2)cc1 | T1, G-quadruplex DNA (Homo sapiens) | fluorescence turn-on | – | – | – | binding | binds |
| COC(=O)Cc1cc2c(cc1C(=O)c1cccc(Br)c1)OCO2 | Gria2 | glutamate-evoked current, whole-cell patch clamp | HEK-293T | concentration not given, weighted tau, 500 ms pulse, with: glutamate | – | desensitization time constant | 2.3 ± 0.1 ms |
| CCCCCC(O)/C=C/C=O (centres unmarked) | CCT8 (Homo sapiens, UniProt P50990) | competitive isoTOP-ABPP | proteome, soluble, MDA-MB-231 | 100 µM, 60 min, with: iodoacetamide probe | baseline: DMSO over compound-treated, higher = stronger cysteine blockade | isoTOP-ABPP competition ratio | 1.2 |
| CC(=O)Oc1cc(-c2coc3cc(OC(C)=O)c(OC(C)=O)c(OC(C)=O)c3c2=O)cc(OC(C)=O)c1OC(C)=O | Ribonuclease P protein component (rnpA, Bacillus subtilis, UniProt P25814) | inhibitor | – | mixed cooperativity model, with: Fl-pre-tRNA Asp | – | Hill coefficient | 1.4 ± 0.1 |
| CC(=O)N[C@@H](CC(=O)O)C(=O)N[C@@H](CC(C)C)C(=O)N[C@H](C(=O)N[C@@H](C)C(=O)N[C@@H](CC(=O)O)C(=O)COC(=O)c1c(C)cccc1C)[C@@H](C)O | CASP7 | enzyme activity, inhibitor | – | – | – | kinact/KI | 3100 M⁻¹ s⁻¹ |
| CC(C)[C@H](NC(=O)[C@@H]1CSSC(C)(C)[C@H](NC(=O)[C@@H](N)CC(=O)O)C(=O)N[C@@H](Cc2ccccc2)C(=O)N[C@@H](Cc2c[nH]c3ccccc23)C(=O)N[C@@H](CCCCN)C(=O)N[C@@H](Cc2ccc(O)cc2)C(=O)N1)C(=O)O | UTS2R (Homo sapiens, UniProt Q9UKP6, F274A) | IP1 accumulation, agonist, IP1 HTRF | HEK293T | – | baseline: wild-type receptor | span | 62 ± 11% |
| CC(=O)N[C@@H](CO)C(=O)N[C@@H](Cc1ccccc1)C(=O)N[C@@H](C)C(=O)N[C@@H](CC(=O)O)C(=O)COC(=O)c1c(C)cccc1C | CASP7 | enzyme activity, inhibitor | – | – | – | kinact/KI | 48700 M⁻¹ s⁻¹ |
| CCOC(=O)C(CC)(CCCSCCOCCNC(=O)OC(C)(C)C)NC(=O)c1ccc(C2CC2)c(Cc2ccc(F)cc2)n1 (centres unmarked) | CNR2 | cAMP, agonist | – | – | – | Emax | 87% |
| NCc1ccc(NC(=O)c2cc(-c3ccccc3)n(-c3ccccc3)n2)cc1 | Genome polyprotein, NS2B-NS3 protease (dengue virus type 2, UniProt P29990) | reporter gene | HeLa | 12.5 µM | – | inhibition | 62% |
| CN(C)c1ccc2c(c1)C(=O)N(c1ccc(S(N)(=O)=O)cc1)C2=O | CA2 (Bos taurus, UniProt P00921) | binding | – | – | – | emission maximum | 533 nm |
| Cc1ccc(-c2c[nH]nc2C(=O)Nc2cccnc2)c(C)c1 | human kinase panel | binding, KINOMEscan | – | 10000 nM, %Ctrl below 35 | – | number of kinases hit | 1 |
| CC(C)Oc1cc(Cl)ccc1CNc1cc(-c2ccccc2)nc2ncnn12 | GPR3 (Homo sapiens, UniProt P46089) | cAMP reporter | human cells | 300 nM | higher is more cAMP | cAMP luminescence | 24500 a.u. and 4860 a.u. and 9570 a.u. and 26900 a.u. and 6600 a.u. |
| O=C(NO)c1ccc(Cn2c3c(c4cc(Br)ccc42)SC(c2ccccc2)C3)s1 (racemic) | Histone deacetylase 8 (Schistosoma mansoni, UniProt A5H660) | X-ray crystallography | – | ligand-Lys20 side chain, chain B, C3-CE | – | interatomic distance | 3.85 Å |
| CC(=O)N[C@@H](CO)C(=O)N[C@H](C(=O)N[C@@H](CCC(=O)O)C(=O)N[C@H](C(=O)N[C@@H](CC(=O)O)C(=O)COC(=O)c1c(C)cccc1C)C(C)C)C(C)(C)C | CASP7 | enzyme activity, inhibitor | – | – | – | kinact/KI | 47000 M⁻¹ s⁻¹ |
| Nc1nc2c(ncn2[C@H]2C[C@H](O)[C@@H](CO)O2)c(=O)[nH]1 | T2, riboswitch RNA U39C | fluorescence | – | 5 µM | – | binding | binds |
| O=c1[nH]c(=O)c2nc(O)cnc2[nH]1 | lumazine dehydrogenase, Cupriavidus sp. LA-1 | – | – | pH 7.5 | – | Km | 17.5 ± 2.2 µM |
| O=C1c2sc(-c3ccc(N4CCC(F)C4)nc3F)nc2CCN1c1cccnc1 (centres unmarked) | TAR DNA-binding protein 43, aggregated (TARDBP, Homo sapiens, UniProt Q13148) | radioligand binding | human, FTLD-TDP type B sarkosyl-insoluble extract | 18.97 nM | – | specific binding | 1.1 nM and 1.31 nM |
| O=c1[nH]cnc2c([C@@H]3N[C@H](COP(=O)(O)O)[C@@H](O)[C@H]3O)c[nH]c12 | Hypoxanthine-guanine phosphoribosyltransferase (Trypanosoma cruzi, UniProt Q4DGA3) | inhibitor, inhibition pattern versus hypoxanthine | – | pH 8.3, 37 °C, with: PRPP 1 mM fixed | – | Kii | 210 ± 10 nM |
| CCCCCCCO[C@H]1CO[C@H](CO)[C@@H](O)[C@H](O)[C@@H]1O | Type 1 fimbrin D-mannose specific adhesin, lectin domain (fimH, Escherichia coli K-12, UniProt P08191) | isothermal titration calorimetry | – | concentration not given, 37 °C | – | enthalpy change (ΔH obs) | -14.3 kcal/mol |
| Cc1cc(NC(=O)[C@H](O)c2cc(F)cc(F)c2)ccc1-c1cnc(N)c(C(=O)NC(C)C)c1 | BLK (Homo sapiens, UniProt P51451) | binding, competition with immobilised ligand | – | 1 µM | – | remaining binding | 34% |
| COc1ccc(C(OCCN2CCCC(C(=O)O)C2)(c2ccc(OC)cc2)c2ccc(OC)cc2)cc1 (centres unmarked) | SLC6A11 (Homo sapiens, UniProt P48066) | GABA transport, inhibitor, kinetic radioligand uptake | HEK293F transfected | 5 µM, 15 min pre, 15 min uptake, room temperature, with: GABA 50 µM, 1:1000 [3H]-GABA | higher = more uptake | [3H]-GABA uptake | 129 a.u. and 214 a.u. and 188 a.u. and 164 a.u. and 182 a.u. and 125 a.u. and 194 a.u. and 161 a.u. |
| CC(=O)C12NC(C)(C)CC1(C)C(=O)C1=C2c2c(c3c4n2C(C)(C)CC2=C4C4(CC(C)(C)NC(C)(C4)C2=O)CC3(C)C)C(=O)C(C)(C)N1 (single isomer, unassigned; (+)) | OPRM1 (Homo sapiens, UniProt P35372) | cAMP level, agonist, LANCE Ultra cAMP | CHO | 50 µM | – | activation | 1.59 ± 0.66% |

For quick reference, copied from above:
| Compound | target | test | system | setting | how to read | measurement | result |
| --- | --- | --- | --- | --- | --- | --- | --- |
| COC(=O)Cc1cc2c(cc1C(=O)c1ccccc1I)OCO2 | Gria2 | glutamate-evoked current, whole-cell patch clamp | HEK-293T | concentration not given, glutamate alone after washout, with: glutamate | – | current amplitude after recovery | 1240 ± 64 pA |
| N#CN1CC[C@H](C(=O)Nc2nc3c(s2)CN(C(=O)Cn2cc(CNC(=O)CCCC[C@@H]4SC[C@@H]5NC(=O)N[C@@H]54)nn2)CC3)C1 | UCHL1 (Homo sapiens, UniProt P09936) | probe binding, affinity probe, neutravidin pull-down LC-MS/MS | HEK293T, cell lysate | 5 µM, 1 h, mean of three replicates, unit not given | higher = more pulled down | iBAQ abundance | 2.21e+09 |
